Published values of several laboratories.
Every numbered part comes from another study and shows a few of its results, in no order. Substitutions count along the parent as printed.

Block 1
Target: vanadate, free oxyanion
Technique: microfluidic competitive inhibition
Matrix: in vitro, cell-free expressed
Tested at: not given
Setting: derived from inhibition constants, unchanged parent 676 nM
Reading: lower = stronger binding
Parent: PafA, mature enzyme, eGFP fusion (Elizabethkingia meningoseptica, UniProt Q9KJX5); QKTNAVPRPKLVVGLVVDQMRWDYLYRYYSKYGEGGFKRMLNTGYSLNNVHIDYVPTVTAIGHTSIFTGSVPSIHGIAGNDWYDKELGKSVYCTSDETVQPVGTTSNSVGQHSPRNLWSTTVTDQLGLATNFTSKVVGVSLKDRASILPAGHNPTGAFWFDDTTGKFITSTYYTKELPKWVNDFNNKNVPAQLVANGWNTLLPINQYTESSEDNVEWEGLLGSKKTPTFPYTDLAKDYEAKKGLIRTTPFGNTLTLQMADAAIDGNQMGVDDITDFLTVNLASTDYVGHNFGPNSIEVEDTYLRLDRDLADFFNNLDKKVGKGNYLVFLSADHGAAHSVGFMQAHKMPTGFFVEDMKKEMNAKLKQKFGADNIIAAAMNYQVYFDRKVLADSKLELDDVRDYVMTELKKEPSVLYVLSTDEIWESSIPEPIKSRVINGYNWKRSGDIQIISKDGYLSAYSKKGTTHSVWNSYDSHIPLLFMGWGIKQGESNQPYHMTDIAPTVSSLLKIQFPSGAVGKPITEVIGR
| Substitution | oxyanion analog dissociation constant [nM] |
| --- | --- |
| Q267V | 1160 |
| T255G | 1750 |
| E359G | 722 |
| G251V | 814 |
| G321A | 597 |
| N314V | 757 |
| A261V | 520 |
| E86G | 516 |

Block 2
Target: CCND2, cyclin fold, Cln2 fusion (human)
Technique: yeast growth competition, sequencing
Matrix: yeast
Setting: weak parent motif
Relative to: not given
Reading: higher = stronger binding
Parent: viral docking peptide; KGVKRKLFAEDSS; partner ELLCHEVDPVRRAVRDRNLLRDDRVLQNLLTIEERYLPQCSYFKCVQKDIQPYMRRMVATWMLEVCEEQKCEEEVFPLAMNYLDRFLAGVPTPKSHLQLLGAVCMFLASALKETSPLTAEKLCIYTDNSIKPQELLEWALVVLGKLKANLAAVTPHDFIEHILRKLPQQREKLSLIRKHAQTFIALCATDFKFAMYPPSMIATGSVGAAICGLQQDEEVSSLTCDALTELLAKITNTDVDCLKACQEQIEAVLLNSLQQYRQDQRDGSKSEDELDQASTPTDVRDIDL
| Substitution | normalised enrichment score |
| --- | --- |
| V3H | 0.0968 |
| S12K | -0.0181 |
| D11M | -0.328 |
| A9V | 0.342 |
| V3Y | 0.229 |
| K6D | -0.285 |
| A9I | 0.0364 |
| S13A | 0.16 |

Other studies, line by line
| SMILES | target or system | system | conditions | measurement | value |
| --- | --- | --- | --- | --- | --- |
| CNC(=O)c1ccc(-c2cnn3ccc(C(=O)N(C)c4ccc(Cl)c(C(=O)O)c4)cc23)cc1 | – | beagle dog, plasma | oral, 250 mg/kg/day, multiple doses | Cmax | 34.2 ng/mL |
| C[C@]1(O)CC[C@H]2[C@@H]3CCC4=CC(=O)CC[C@]4(C)[C@@]3(F)[C@@H](O)C[C@@]21C | A-375 | – | 100 µM, 36 h | viability | 82% |

A few entries again (block 2):
| Substitution | normalised enrichment score |
| --- | --- |
| S13A | 0.16 |
| S12K | -0.0181 |
